Results collected from several papers.
Protocols differ between the studies behind these lines. “And” joins repeats or separate records; there may be more than shown. ≈ marks a conversion by molar mass, not a printed value.
CDK2: Cyclin-dependent kinase 2 (CDK2, Homo sapiens, UniProt P24941)

With `COC(=O)[C@@H](CCSC)NCc1cc2ccccc2nc1SC` the growth was 89.3% (Pseudomonas aeruginosa; 128 µg/mL, without pentamidine; baseline: control).
With `CC(=O)NC[C@H]1CN(c2ccc(N3CCOCC3)c(F)c2)C(=O)O1` the ED50 was 17 mg/kg (Staphylococcus; MRSA-11, mouse systemic infection; intravenous; survival).
The Kd of `O=C(Nc1ccc(S(=O)(=O)Nc2ncccn2)cc1)c1c(Cl)cccc1Cl` is reported as over 100 µM (CDK2; binding).
With `CC(=O)NC[C@H]1CN(c2ccc(N3CCOCC3)c(F)c2)C(=O)O1` the MIC was 2.96 µM (≈ 0.999 µg/mL) (Enterococcus faecium; NR-31937).
`O=C(N1CCc2ccccc21)n1ccnn1` has a hypocotyl length of 6.42 mm (Arabidopsis thaliana; wild type, seedlings; 10 µM, continuous red light, added: 0.3 µM karrikin KAR2).
`C=C[C@]1(C)C[C@@H](OC(=O)CSCCN(CC)CC)[C@]2(C)[C@H](C)CC[C@]3(CCC(=O)[C@H]32)[C@@H](C)[C@@H]1O` — result for “reduction in lung mycoplasma load”: 2.35 log10 CFU/mL and 2.44 log10 CFU/mL and 4.13 log10 CFU/mL and 2.79 log10 CFU/mL and 2.4 log10 CFU/mL and 2.39 log10 CFU/mL (Mycoplasma gallisepticum; infected chickens, lung; intramuscular, 40 mg/kg; baseline: 0 h).
For `Cc1ccc(CCC(=O)Nc2nnc(S(N)(=O)=O)s2)cc1`, the MIC was 0.184 µM (≈ 0.0601 µg/mL) (Enterococcus faecium; HM-952).
`CS(=O)(=O)N(CC(=O)Nc1ccccc1C(=O)N1CCOCC1)c1ccc(Cl)cc1` has a Kd of over 100 µM (CDK2; binding).
`CC(C)n1ncc2c(C(=O)NCC3(C)CNC3)cc(C3CC3)nc21` gave a cell protection of 99% and 96.9% and 95.9% (Enterovirus D68; cytopathic effect; RD, US/KY/14-18953; 1500 nM).
`CN[C@H](CC(C)C)C(=O)N[C@H]1C(=O)N[C@@H](CC(N)=O)C(=O)N[C@H]2C(=O)N[C@H]3C(=O)N[C@H](C(=O)N[C@H](C(=O)O)c4cc(O)cc(O)c4-c4cc3ccc4O)[C@H](O)c3ccc(c(Cl)c3)Oc3cc2cc(c3O[C@@H]2O[C@H](CO)[C@@H](O)[C@H](O)[C@H]2O[C@H]2C[C@](C)(N)[C@H](O)[C@H](C)O2)Oc2ccc(cc2Cl)[C@H]1O` has an MIC90 of 4 µg/mL (≈ 2.76 µM) (Enterococcus faecium; agar dilution; compound-susceptible isolates).

A few entries again:
With `COC(=O)[C@@H](CCSC)NCc1cc2ccccc2nc1SC` the growth was 89.3% (Pseudomonas aeruginosa; 128 µg/mL, without pentamidine; baseline: control).
